# Published values collected from several papers.
# A part holds a random share of what one study measured. Substitutions count along the parent as printed.

# Sample 1
# Target: Hepatocyte nuclear factor 3-alpha (Foxa1, Mus musculus, UniProt P35582, residues 1-468, full length assumed)
# Chain of UniProt P35582 (whole entry, looked up): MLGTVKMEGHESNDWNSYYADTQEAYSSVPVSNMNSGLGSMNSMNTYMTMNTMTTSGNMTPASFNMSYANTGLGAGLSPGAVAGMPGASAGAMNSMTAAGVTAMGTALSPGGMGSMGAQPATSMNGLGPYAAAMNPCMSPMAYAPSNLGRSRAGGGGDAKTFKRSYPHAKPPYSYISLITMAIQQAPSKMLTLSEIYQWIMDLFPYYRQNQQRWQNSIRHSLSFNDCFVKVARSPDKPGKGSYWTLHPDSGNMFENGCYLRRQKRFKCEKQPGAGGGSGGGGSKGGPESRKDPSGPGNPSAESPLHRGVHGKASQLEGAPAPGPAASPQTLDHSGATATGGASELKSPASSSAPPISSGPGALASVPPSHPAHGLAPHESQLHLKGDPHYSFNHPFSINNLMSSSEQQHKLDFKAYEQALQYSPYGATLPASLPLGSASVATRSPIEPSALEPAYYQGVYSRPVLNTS
# Technique: EMSA with sequencing
# Form: double-stranded DNA, one strand shown
# Matrix: in vitro
# Concentration: 10 and 20 nM
# Setting: whole designed probe, mean of two concentrations, ends assumed
# Baseline: negative control set to 0
# Reading: higher = stronger binding
# All sequences stand within: GTGAGCGGTGCCCATTGATGGGGAAC … TTTCACTGGGATCGTGGGGAC
Oligonucleotide,normalised bound fraction [ratio]
AATCCAGCTACCTATCTTCAGTTCCTTGGCCTTCAGCTGGCAGTGAAACAGACACATCAGCTTTAAGACTGGCAGCCAAATAGTTAACGATCTGTAAACATACATAGAGAGTTCCTGTTCATTACGCAAGAAACAGACTGGATGAAAGCCCTTCCATAAAGAACCCTTTAGGTGATGATGCTAAAATTATTTT,0.156
GATTAAATATAGGAAAGTATGTATAAACTTACGTGAATATGCCCTGTTACATTCTACAAATTAAAAGTTGATTAGCTTTCTTGTGATCCCCAAAGTAATCTTAAAAATGTATAAGCCTGAAATATTATCAATTAGAAAATATTTGGAGAAATTGCTTCTTAAAATATGGTAGAATATTTTAAGAAGCATTGTT,0.00383
GACAGTACATGTTTTAGGATTTTTGGACCACACAGTCTCTGTCACAATGACTCAGCTTTGCCATTGTAGCGTGCAAACAGCCACAAACCATATGCAATCTAAGAGGGTGTGGTTGTATGCCAATAAAACTTTATTTACAAAAGCAGGAGGACAGTGGAGTTGGCTTGCAGACAGTCATTTGCAGAGCCCTGAT,0.261
CCTGAAGGCAGCTGGGGTCAGGGAACAAGGCAACTGAATATCCTCCATCAGGAAATCCTAAGAGAATAAAAAGACCAGTCTTGTAACATAAATATAAACATCTAATCAAATTAGCCAATTAGAAAAACATTTTTAAGAAAAGGCAATCTTTTACCAATTTGTCCTATGTATCTTTTGCATTTTTTCTCCCTAA,0.0599
CTAATCTCTCTTGGCATCAGGACTTGGTCTTTTGCTGTAGGAGCCACACCAATGGATACCACTCAACCAAAGTGACCCTGGGACAGAGCCAGTATAAACACGGTCCCTCGTGAGTCAAGCGTCTGGGATAAGTGAACAAACACTGGGCTGAAAACCTGGGACTGGCTGGTTGTTTAAGAGCTATCACCTGCTC,0.164
TAATAATAATAGATCCTTATTATATTTATGGAAATCTATACTAATACTTAATATGGCCTTCTTTTCTTTGGTTTTTATAGCTGGGAAACTAAGTAAACATGAGAAACTTATCATGAGAAACTTCTCATGTCAGCCTCACTCATATACTACCCCTTCAACTTGCTGTAGAGTGTCAAAGATTAAAATCTCACTC,0.379
CTTTGCAAAGCTATGCAAATTATAAAGCAATTCATTATGGTTAAGAAAAGAGTTTTTCCCAAAGAGCTGCAAATACTCACCAGTGACACAAAGTAAACAAAGACCCAAAGATGGAACCAAAAGATAGTTCTTGTCTTTAGAGGAAGAATATCCAAGATGCATTGGACAGAACAAATAATACCCTAGTGTGTTA,0.545
TTACTTTGATTCTATTTTCAGATACTAGACCAAGCCATAATAACTAAACAAGTATCTCAACAAACATGGAGTTGTTCTTAAAATAAATTCCTTGTTTACACAGCGCTTTTCTCGAAAATAACTCCAAATGCTTTACAAAGACAAAATTCCACCATTAACGCTTTGATATATAGCAGTGAGAATATGTCACACC,0.454

# Sample 2
# Target: Sal-like protein 4, full length isoform A (SALL4, Homo sapiens, UniProt Q9UJQ4, residues 1-1053)
# Chain of UniProt Q9UJQ4 (whole entry, looked up): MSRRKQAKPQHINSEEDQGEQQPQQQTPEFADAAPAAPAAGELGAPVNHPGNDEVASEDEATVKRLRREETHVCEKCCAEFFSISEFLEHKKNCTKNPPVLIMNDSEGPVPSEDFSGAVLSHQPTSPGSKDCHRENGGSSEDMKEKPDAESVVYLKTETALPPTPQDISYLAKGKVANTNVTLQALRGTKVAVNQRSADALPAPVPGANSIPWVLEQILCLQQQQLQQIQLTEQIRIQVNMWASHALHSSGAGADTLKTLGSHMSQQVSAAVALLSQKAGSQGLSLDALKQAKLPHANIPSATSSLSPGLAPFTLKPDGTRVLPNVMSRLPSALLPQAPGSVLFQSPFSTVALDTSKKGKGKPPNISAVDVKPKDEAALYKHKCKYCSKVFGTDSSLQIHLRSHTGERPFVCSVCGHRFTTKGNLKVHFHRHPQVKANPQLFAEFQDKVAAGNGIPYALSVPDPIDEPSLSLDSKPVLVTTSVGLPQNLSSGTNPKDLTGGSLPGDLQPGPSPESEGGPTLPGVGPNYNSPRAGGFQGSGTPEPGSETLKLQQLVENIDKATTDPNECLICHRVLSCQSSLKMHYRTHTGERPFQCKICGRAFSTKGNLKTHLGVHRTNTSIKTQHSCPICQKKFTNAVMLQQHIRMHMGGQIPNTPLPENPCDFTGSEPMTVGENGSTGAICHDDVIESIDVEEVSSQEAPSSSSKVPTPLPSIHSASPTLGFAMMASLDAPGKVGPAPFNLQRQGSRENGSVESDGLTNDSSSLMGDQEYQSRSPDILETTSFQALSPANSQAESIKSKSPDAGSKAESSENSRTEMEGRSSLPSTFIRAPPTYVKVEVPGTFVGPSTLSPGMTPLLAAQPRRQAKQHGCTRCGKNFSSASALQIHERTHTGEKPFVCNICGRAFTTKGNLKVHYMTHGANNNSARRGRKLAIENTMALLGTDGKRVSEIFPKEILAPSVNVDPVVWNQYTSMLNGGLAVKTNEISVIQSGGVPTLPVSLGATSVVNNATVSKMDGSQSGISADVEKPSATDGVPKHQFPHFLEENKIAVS
# Technique: universal PBM
# Form: double-stranded DNA, one strand shown
# Matrix: in vitro
# Concentration: 600 nM
# Setting: 8-mer, flanks averaged, mean of replicates
# Reading: higher = stronger binding
Oligonucleotide,E-score
AAATGATT,0.332
CCTTCTGA,0.0923
GACAGATC,-0.0339
GTGCCCGA,-0.237
ATCTCTAC,0.128
CTGGGGTA,-0.163
GCAAGGCA,-0.0658
GATTACAA,0.229
ACATTTCT,0.192
CCGCACTC,-0.245
ACCGCAGT,-0.0538
TAAAGATA,0.245
CACTGAAA,0.0858
GCGCCTGA,-0.272
CTCGATGA,0.0261
GCTGGAAC,-0.124
CATGCAAA,0.148
ACGGTAAG,-0.0779
AGACGGGC,-0.301
AATACTGT,0.244
CCTCTACC,-0.18
GCAATTGA,-0.0121
ACCTAGCT,-0.185
ACCGACAG,-0.26
ATTGCAGG,0.0988

# Sample 3
# Target: Ras GTPase-activating protein-binding protein 1, full length (G3BP1, Homo sapiens, UniProt Q13283)
# Chain of UniProt Q13283 (whole entry, looked up): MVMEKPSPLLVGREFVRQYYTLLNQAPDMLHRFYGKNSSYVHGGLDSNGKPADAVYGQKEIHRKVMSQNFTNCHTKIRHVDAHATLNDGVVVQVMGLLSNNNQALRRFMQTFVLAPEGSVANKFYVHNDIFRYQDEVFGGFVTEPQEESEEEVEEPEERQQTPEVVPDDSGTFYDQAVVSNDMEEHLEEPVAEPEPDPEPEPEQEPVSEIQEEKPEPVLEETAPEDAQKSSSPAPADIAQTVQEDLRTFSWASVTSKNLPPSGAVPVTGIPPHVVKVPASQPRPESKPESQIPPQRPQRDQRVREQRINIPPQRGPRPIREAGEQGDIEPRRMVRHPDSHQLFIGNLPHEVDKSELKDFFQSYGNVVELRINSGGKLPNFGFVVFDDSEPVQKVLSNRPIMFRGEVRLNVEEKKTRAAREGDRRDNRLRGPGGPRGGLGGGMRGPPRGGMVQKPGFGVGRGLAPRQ
# Technique: RNA Bind-n-Seq
# Form: RNA
# Matrix: in vitro
# Concentration: 200 nM
# Setting: whole 134-nt RNA, ends assumed
# Together with: 150 mM LiCl
# Baseline: input library
# Reading: higher = stronger binding
# All molecules: 7-deaza-guanosine replaces G
# All sequences stand within: GGGAGUUCUACAGUCCGACGAUC … UGGAAUUCUCGGGUGUCAAGG
Oligonucleotide,log2 enrichment
ACCAUGCAGGUGUGCAUCUUUGGGAAGUGGGGCAAGGGGGGGAUAGGGAGGGGGGUAACACUUUGGGAACAGGUGGUCCCAGGUCGUUUC,0.426
CUGUGCUACACAUCGUAUGUACCGAAUCGGGGUUUUUUUGGGGAAAAAAAGGGGAAAGGGGAAAGUAUUAUGUUACGCCGUUCGGAUCUG,-1.1
AGUCCUGUGCUACACAUCGUAUGUACCGAAUCGGGCCCCCGGCCCCCGGGGCCCCCGGAAAGUAUUAUGUUACGCCGUUCGGAUCUGCAC,-1.86
AAGUCCUGUGCUACACAUCGUAUGUACCGAAUCAAACCCAAAUUUUUAAAUUUAAAAAAGUAUUAUGUUACGCCGUUCGGAUCUGCACUU,-0.616
CUCAAGUCCUGUGCUACACAUCGUAUGUACCGAAUCGGGGCCGGCCGGGCCGGGAAAGUAUUAUGUUACGCCGUUCGGAUCUGCACUUCC,0.665
GCAGGAAGUAAAAACAAAUGGAAAUGCUUCGGAUAGUGCCAGGGGUGGGGGUUGCUAAGGAAAGGGUGGGAUGGGAGUGGGUAAAGAGUU,0.432
CUGUGCUACACAUCGUAUGUACCGAAUCGGGGUUUUUUGGGGUUUUUUGGGGUUUUUUGGGGAAAGUAUUAUGUUACGCCGUUCGGAUCU,1.62
AAGUCCUGUGCUACACAUCGUAUGUACCGAAUCAAACCCAAAUUUAAACCCCCAAAAAAGUAUUAUGUUACGCCGUUCGGAUCUGCACUU,1.52
UCCUCAAGUCCUGUGCUACACAUCGUAUGUACCGAAUCGGAGGGAGGAGGGGAAAGUAUUAUGUUACGCCGUUCGGAUCUGCACUUCCAG,0.415
CAAGUCCUGUGCUACACAUCGUAUGUACCGAAUCGGGGUGGGGUGGGGAAAGGGGAAAGUAUUAUGUUACGCCGUUCGGAUCUGCACUUC,-0.977
CAAGUCCUGUGCUACACAUCGUAUGUACCGAAUCGGGGUUUGGGUUUGGUUUGGGAAAGUAUUAUGUUACGCCGUUCGGAUCUGCACUUC,-0.287

# Sample 4
# Target: Interferon regulatory factor 7, full length, phosphomimetic (IRF7, Homo sapiens, UniProt Q92985, residues 1-503, S101K/S471D/S472D/S475D/S476D/S477D/S483D/S484D/S487D)
# Technique: protein-binding microarray
# Form: double-stranded DNA, one strand shown
# Matrix: in vitro
# Concentration: 250 nM
# Setting: 60-bp whole probe
# Together with: salmon DNA 0.4 mg/ml
# Baseline: random background probes
# Reading: higher = stronger binding
# All sequences stand within: GCCTAGCAC … GTCTTGATTCGCTTGACGCTGCTG
# Construct (chain): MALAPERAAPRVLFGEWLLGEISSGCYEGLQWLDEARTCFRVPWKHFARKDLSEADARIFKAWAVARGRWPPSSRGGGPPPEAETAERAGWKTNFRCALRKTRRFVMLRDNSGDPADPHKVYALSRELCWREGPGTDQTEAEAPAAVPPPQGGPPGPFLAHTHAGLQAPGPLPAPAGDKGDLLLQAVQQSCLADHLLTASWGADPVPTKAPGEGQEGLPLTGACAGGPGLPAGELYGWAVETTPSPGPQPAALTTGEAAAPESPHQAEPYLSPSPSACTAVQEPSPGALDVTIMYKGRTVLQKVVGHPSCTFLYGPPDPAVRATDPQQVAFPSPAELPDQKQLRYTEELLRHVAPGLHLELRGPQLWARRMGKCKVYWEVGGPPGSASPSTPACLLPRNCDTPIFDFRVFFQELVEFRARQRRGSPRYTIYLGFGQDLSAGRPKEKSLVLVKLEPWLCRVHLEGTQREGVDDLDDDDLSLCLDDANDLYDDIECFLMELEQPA
Oligonucleotide,log fluorescence
TTAGATATCGGGTAACGATTAGTGCTA,0.0052 z-score
GACGGTTTCGGGTTACGGGACGTGCTA,12.8 z-score
GCCGATATCGGGTATCGAGACGTGCTA,0.2 z-score
GACGGTGTCGACTTTCGGGACGTGCTA,-0.336 z-score
GACAGTTTCGGACTGGGGACGTGCTAG,3.54 z-score
CTTAGACTGTCCTGCTGGAGGTGCTAG,-0.388 z-score
GACGGTCTTGGACTGGGGACGTGCTAG,-0.349 z-score
GGACGGCAGTGCACACAGTGGTGCTAG,-1.07 z-score
GACGATATCAGTATCGAGATGTGCTAG,0.351 z-score
TTAGGTTTCGGTTTCTGTTAGTGCTAG,15.2 z-score
TTAGTTTTCGACTTTCGGTTAGTGCTA,6.04 z-score
TTGGGTTTCGGTCTCGGTTAGTGCTAG,7.04 z-score
TTACATTTCAGACTGGATTAGTGCTAG,0.611 z-score
GACGGACTGGACTTGCGGGACGTGCTA,-0.96 z-score
TTAGGTTTCAGGTTTCGGTTAGTGCTA,8.78 z-score
GACGCTATCAGTTTCGAGACGTGCTAG,3.24 z-score
TTAGGACTGGGGATTCGGTTAGTGCTA,0.929 z-score
TTAGGTTTCCTTGCCCTTTAGTGCTAG,0.733 z-score
TTAGGACTGCTTATCCTTTAGTGCTAG,-0.0201 z-score

# Sample 5
# Target: ABI1, truncated, D143A, DHFR fusion (Arabidopsis thaliana)
# Technique: DHFR PCA, deep sequencing
# Matrix: yeast
# Setting: methotrexate growth selection, single substitutions
# Together with: (+)-ABA 200 µM
# Baseline: wild-type fitted maximum
# Reading: higher = stronger binding
# Parent: PYL1, truncated, DHFR fusion (Arabidopsis thaliana); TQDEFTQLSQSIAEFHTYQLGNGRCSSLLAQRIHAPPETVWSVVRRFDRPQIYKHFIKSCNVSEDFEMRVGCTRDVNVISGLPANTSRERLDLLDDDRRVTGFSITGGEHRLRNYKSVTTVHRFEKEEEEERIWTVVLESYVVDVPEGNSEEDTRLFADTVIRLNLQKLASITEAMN; partner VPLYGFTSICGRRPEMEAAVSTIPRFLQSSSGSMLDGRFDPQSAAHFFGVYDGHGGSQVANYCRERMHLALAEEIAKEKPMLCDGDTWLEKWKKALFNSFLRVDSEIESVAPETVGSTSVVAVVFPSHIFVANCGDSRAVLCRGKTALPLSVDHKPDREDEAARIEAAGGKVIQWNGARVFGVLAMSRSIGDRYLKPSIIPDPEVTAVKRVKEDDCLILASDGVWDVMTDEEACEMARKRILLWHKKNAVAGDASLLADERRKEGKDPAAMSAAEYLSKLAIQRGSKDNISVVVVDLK
Change,relative binding score [%]
S117D,-4.57
Q19D,96.3
D95E,62.7
T120W,-5.64
N114L,7.85
D144V,52.5
F56W,97.7
N77K,106
D92L,59.4
F124I,109
A35M,62.2
R74L,4.05
I12V,95.8
N165V,0.247
P50I,15
S63R,100
K116Y,38.5
N77G,101

# Sample 6
# Target: Histone acetyltransferase KAT6A, both winged helices, GST fusion (KAT6A, Homo sapiens, UniProt Q92794, residues 1-181)
# Technique: protein binding microarray
# Form: double-stranded DNA, one strand shown
# Matrix: in vitro
# Concentration: not given
# Setting: 8-mer, flanks averaged, mean of 2 arrays, mostly near background
# Baseline: not given
# Reading: higher = stronger binding
# Construct (chain): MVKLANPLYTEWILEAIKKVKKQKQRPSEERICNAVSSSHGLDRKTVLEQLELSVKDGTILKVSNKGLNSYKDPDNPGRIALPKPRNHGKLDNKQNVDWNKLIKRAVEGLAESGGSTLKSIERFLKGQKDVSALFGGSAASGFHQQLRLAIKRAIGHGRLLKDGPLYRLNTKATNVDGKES
Oligonucleotide,E-score
AGACAAAG,-0.085
AATGGAAA,-0.0574
GAAATTTA,-0.127
AAGCCAAT,-0.169
GAGGTGCC,-0.111
AGAGAGGC,-0.284
GCATTCGA,0.0426
GGTGTCGA,0.0262
CGAGGATA,-0.255
GCTTAAAC,0.11
TACAGTAA,-0.153
CTTTTGCA,-0.0641
GTGGGGCA,-0.13
CGGAGAGC,0.139
AGCCGCAA,0.111
AGAACCAG,-0.0303
CGAGACCC,0.133
CCTCATTC,-0.138
CCATTCTC,-0.249
GTGCCCAA,-0.0328
AGTCGCAA,-0.00124

# A few entries again (sample 2):
Oligonucleotide,E-score
GCGCCTGA,-0.272
ATCTCTAC,0.128
CTGGGGTA,-0.163
CACTGAAA,0.0858
CATGCAAA,0.148
ACCTAGCT,-0.185
CCTTCTGA,0.0923
CTCGATGA,0.0261
GTGCCCGA,-0.237
ACATTTCT,0.192
TAAAGATA,0.245
GATTACAA,0.229
CCTCTACC,-0.18
GCAATTGA,-0.0121
